Published values pooled from the literature.
Lines come from different studies, so protocols differ. ± gives the spread as reported. Values after ≈ are worked out from the molar mass of the structure shown.
UniProt P21729, sequence (whole entry, looked up): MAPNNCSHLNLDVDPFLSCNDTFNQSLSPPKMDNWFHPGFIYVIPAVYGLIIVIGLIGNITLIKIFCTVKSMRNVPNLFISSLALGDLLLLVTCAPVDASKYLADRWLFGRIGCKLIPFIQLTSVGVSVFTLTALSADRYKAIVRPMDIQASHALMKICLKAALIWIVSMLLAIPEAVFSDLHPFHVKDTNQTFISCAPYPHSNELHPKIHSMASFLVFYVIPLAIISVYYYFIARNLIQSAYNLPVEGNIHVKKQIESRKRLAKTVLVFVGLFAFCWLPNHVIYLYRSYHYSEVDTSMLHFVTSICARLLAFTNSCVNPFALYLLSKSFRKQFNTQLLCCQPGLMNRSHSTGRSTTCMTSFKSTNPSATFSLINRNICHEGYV
UniProt G5EFZ1, sequence (whole entry, looked up): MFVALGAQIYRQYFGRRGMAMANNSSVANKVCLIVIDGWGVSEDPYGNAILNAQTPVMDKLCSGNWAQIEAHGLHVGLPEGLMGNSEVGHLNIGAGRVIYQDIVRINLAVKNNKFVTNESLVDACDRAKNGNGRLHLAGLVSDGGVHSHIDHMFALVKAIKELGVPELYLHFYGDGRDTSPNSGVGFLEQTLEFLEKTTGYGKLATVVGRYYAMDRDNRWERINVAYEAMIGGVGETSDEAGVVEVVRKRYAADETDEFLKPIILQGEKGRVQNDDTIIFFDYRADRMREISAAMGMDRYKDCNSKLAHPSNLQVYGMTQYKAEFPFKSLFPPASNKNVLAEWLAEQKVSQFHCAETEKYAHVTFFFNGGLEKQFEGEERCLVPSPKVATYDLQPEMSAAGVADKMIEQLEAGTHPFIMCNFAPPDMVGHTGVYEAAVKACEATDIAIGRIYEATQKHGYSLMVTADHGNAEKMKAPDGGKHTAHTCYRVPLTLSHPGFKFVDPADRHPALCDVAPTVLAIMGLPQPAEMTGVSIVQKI

Compound	target or system	test	system	setting	how to read	quantity	result
CC(CCC(=O)[O-])C1CCC2C3C(O)CC4CC(O)CCC4(C)C3CCC12C.C[N+](C)(C)CC(O)CC(=O)O (stereo not drawn)	Enterococcus faecalis		TISTR 927	1 mg per disc, 18 to 24 h, 37 °C, 6 mm disc		inhibition zone diameter	7.7 ± 0.6 mm
CC1(C)CC[C@]2(CO)CC[C@]3(C)C(=CC[C@@H]4[C@@]5(C)CCCNC(C)(C)[C@@H]5CC[C@]43C)[C@@H]2C1	Human papillomavirus 11	viral replication	C-33 A		baseline: CC50 over EC50	selectivity index	< 3
C[C@@](O)(C(F)F)[C@H](NC(=O)c1ccc(C#CC#CC2CC2)cc1)C(=O)NO			dog, plasma	intravenous, 100 mg/kg		Vd	1.1 L/kg
Nc1ccn(C[C@@H](CO)OCP(=O)(O)OCCCS(=O)(=O)CCCCCCCCCCCCCC2CCC2)c(=O)n1	human alphaherpesvirus 3		HFF, Ellen		baseline: CC50 over EC50	selectivity index	31
CC(=O)[O-].F[P-](F)(F)(F)(F)F.[Ni+2].c1ccc(CN2CCN3CCN(CC2)CCN(Cc2ccccc2)CC3)cc1	Leishmania donovani	parasite growth, resazurin		72 h, amastigote		IC90	> 20 µM
CC[C@H]1OC(=O)[C@H](C(C)C)NC(=O)[C@H](C)OC(=O)[C@@H](C(C)C)NC(=O)[C@@H](C(C)C)OC(=O)[C@H](C(C)C)NC(=O)[C@H](C)OC(=O)[C@@H](C(C)C)NC(=O)[C@@H](C(C)C)OC(=O)[C@H](C(C)C)NC(=O)[C@H](C)OC(=O)[C@@H](C(C)C)NC1=O	U-251	PI staining flow cytometry		0.8 µM, 12 h		G2/M phase cells	15.7%
O=C(O)CC[C@H](NC(=O)N[C@@H](CCCCNC(=O)[C@H](Cc1ccc2ccccc2c1)NC(=O)[C@H]1CC[C@H](CNC(=O)CNC(=O)CNC(=O)CNC(=O)CN2CCN(CC(=O)O)CCN(C(CCC(=O)NCCC[P+](c3ccccc3)(c3ccccc3)c3ccccc3)C(=O)O)CCN(CC(=O)O)CC2)CC1)C(=O)O)C(=O)O (stereo partly drawn) [terbium-161 labelled]	LNCaP (PSMA+)			concentration not given	baseline: cell-associated	internalized activity	50.2%
CC(C)C[C@H](NC(=O)[C@H](CC(=O)O)NC(=O)[C@H](Cc1ccc(O)cc1)NC(=O)[C@H](Cc1ccccc1)NC(=O)[C@H](CS)NC(=O)[C@@H]1CCCN1C(=O)[C@H](CCCNC(=N)N)NC(=O)[C@H](CC(N)=O)NC(=O)[C@@H](NC(=O)[C@H](CCCNC(=N)N)NC(=O)[C@H](CS)NC(=O)[C@@H](N)[C@@H](C)O)[C@@H](C)O)C(=O)N[C@@H](CC(=O)O)C(=O)N[C@@H](CC(C)C)C(=O)N[C@@H](CC(N)=O)C(=O)N[C@H](C(=O)N[C@@H](CS)C(=O)N[C@@H](CCCNC(=N)N)C(=O)N[C@@H](CS)C(=O)N[C@@H](CO)C(=O)O)C(C)C	Escherichia coli, Acinetobacter baumannii, Pseudomonas aeruginosa					MBC	128 µM (≈ 305 µg/mL)
CC[C@H](C)[C@H](NC(=O)[C@@H]1CC(=O)N[C@@H](CO)C(=O)N[C@@H](CC(C)C)C(=O)NCC(=O)N[C@@H](CO)C(=O)N[C@@H](CO)C(=O)N2CCC[C@H]2C(=O)N[C@@H](Cc2ccc(O)cc2)C(=O)N[C@@H](CC(N)=O)C(=O)N1)C(=O)N[C@@H](CC(C)C)C(=O)NCC(=O)N[C@@H](Cc1ccc(O)cc1)C(=O)N1CCC[C@H]1C(=O)N[C@@H](C)C(=O)N[C@@H](CC(C)C)C(=O)N[C@H](C(=O)N[C@H](C(=O)N[C@H](C(=O)N[C@@H](Cc1ccc(O)cc1)C(=O)N1CCC[C@H]1C(=O)O)[C@@H](C)CC)C(C)C)[C@@H](C)CC	fungi			concentration not given		antifungal activity	inactive
Oc1cc(C(F)(F)F)ccc1-c1nc2c(C(F)(F)F)cc(C(F)(F)F)cc2[nH]1	Acinetobacter baumannii	colistin potentiator	AB 1F9, colistin-resistant	5 µM		colistin MIC	0.5 µg/mL
CCCNC(=O)[C@H](CC(C)C)NC(=O)[C@H](Cc1c[nH]cn1)NC(=O)CNC(=O)[C@@H](NC(=O)[C@H](C)NC(=O)[C@H](Cc1c[nH]c2ccccc12)NC(=O)[C@H](CCC(N)=O)NC(=O)[C@@H](Cc1ccccc1)NC(=O)CCCCCNC(=O)CN1CCN(CC(=O)O)CCN(CC(=O)O)CCN(CC(=O)O)CC1)C(C)C [indium-111 labelled]	Gastrin-releasing peptide receptor (Mus musculus, UniProt P21729)		CF-1 mice, carcass	intravenous, dose not given, 1 h, added: bombesin 100 µg (blocking)		tissue uptake	0.2 ± 0.02 %ID/g
COc1ccc(-c2ccc3oc(-c4ccc(OC)cc4)c(C#CC4(O)CCCCC4)c3c2)cc1	hepatitis C virus	viral entry, HCV pseudoparticle entry	genotype 1a	10 µM	baseline: DMSO	remaining activity	86.1%
Nc1ccc(/C=C/C(=O)N2CCc3c(oc4c(-c5ccc(F)cc5)cc(-c5ccc(C(=O)N6CCC(F)(F)CC6)cn5)cc34)C2)cn1	MIA PaCa-2	cell growth or viability, CCK-8		72 h		IC50	0.38 to 0.94 µM
CC[C@H](C)[C@H](NC(=O)[C@H](CCCCN)NC(=O)[C@H](CCCCN)NC(=O)[C@H](CC(C)C)NC(=O)[C@H](CCCCN)NC(=O)[C@H](CCC(=O)O)NC(=O)[C@H](CCCCN)NC(=O)[C@@H](NC(=O)[C@H](CCCCN)NC(=O)[C@H](CC(N)=O)NC(=O)[C@H](CCCNC(=N)N)NC(=O)[C@H](Cc1ccccc1)NC(=O)[C@H](CCCCN)NC(=O)[C@H](CCCNC(=N)N)NC(=O)[C@H](CC(C)C)NC(=O)[C@H](CCCNC(=N)N)NC(=O)[C@H](CCCCN)NC(=O)[C@H](CCCNC(=N)N)NC(=O)[C@H](CC(C)C)NC(=O)[C@@H](N)CCCNC(=N)N)[C@@H](C)CC)C(=O)NCC(=O)N[C@@H](CCC(N)=O)C(=O)N[C@@H](CCCCN)C(=O)N[C@H](C(=O)N[C@@H](CCC(N)=O)C(=O)NCC(=O)N[C@@H](Cc1ccccc1)C(=O)N[C@H](C(=O)N1CCC[C@H]1C(=O)N[C@@H](CCCCN)C(=O)N[C@@H](CC(C)C)C(=O)N[C@@H](CCC(N)=O)C(=O)N1CCC[C@H]1C(=O)N[C@@H](CO)C(=O)N[C@@H](CCCCN)C(=O)N[C@@H](CCC(N)=O)C(=O)N[C@@H](CO)C(=O)O)C(C)C)[C@@H](C)CC	Escherichia coli	inhibition zone	D. J45b			lethal concentration	5.23 µM
[O-][N+]1=C(c2ccsc2)C2=NCCCN2c2ccccc21	Finegoldia magna					MIC	0.25 µg/mL (≈ 0.882 µM)
CC(=O)Oc1ccc(Cn2nc(C)c(=O)[nH]c2=O)cc1C1OC(c2cccc(Cl)c2)=NN1C(C)=O (stereo not drawn)	varicella-zoster virus	plaque formation, plaque reduction	HEL fibroblasts, TK- strain 07-1			EC50	> 20 µM
COc1ccc(C[C@H]2C(=O)N(C)[C@@H](Cc3ccc(O)cc3)C(=O)N(C)[C@@H](Cc3ccccc3)C(=O)N[C@@H](CC(N)=O)C(=O)NCC(=O)N(C)[C@@H](Cc3ccc(O)cc3)C(=O)N[C@@H](CC(N)=O)C(=O)N[C@@H](Cc3c[nH]cn3)C(=O)N[C@@H](Cc3ccc(O)cc3)C(=O)N[C@@H](Cc3c[nH]c4ccccc34)C(=O)N[C@H](C(N)=O)CSCC(=O)N[C@H](Cc3ccc(O)cc3)C(=O)N[C@@H](CC(=O)O)C(=O)N[C@@H](CO)C(=O)N[C@@H](Cc3ccc(O)cc3)C(=O)N[C@@H](C)C(=O)N2C)cc1	ipgm-1 (Caenorhabditis elegans, UniProt G5EFZ1)	enzyme activity				AC50	0.0155 µM
CC(=O)[O-].F[P-](F)(F)(F)(F)F.[Co+2].c1ccc(CN2CCCNCCN(Cc3ccccc3)CCCNCC2)cc1	Leishmania donovani	parasite growth, resazurin		72 h, promastigote		IC50	> 15 µM
CCC(NC(=O)NNS(=O)(=O)c1ccc(C)cc1)(C(F)(F)F)C(F)(F)F	human alphaherpesvirus 1		Vero	concentration not given		antiviral activity	inactive
CN[C@](C)(C[18F])C(=O)O	MDA-MB-468 tumour model		host not given, bone	15 min, tumour-bearing		tracer uptake	2.1 %ID/g
CC(=O)[O-].CN(C)C=O.F[P-](F)(F)(F)(F)F.[Co+2].c1ccc(CN2CCN3CCCN(CC2)CCN(Cc2ccccc2)CC3)cc1	Leishmania donovani	parasite growth	THP-1 macrophages	intracellular amastigotes		IC90	> 10 µM

For quick reference, copied from above:
Compound	target or system	test	system	setting	how to read	quantity	result
CCCNC(=O)[C@H](CC(C)C)NC(=O)[C@H](Cc1c[nH]cn1)NC(=O)CNC(=O)[C@@H](NC(=O)[C@H](C)NC(=O)[C@H](Cc1c[nH]c2ccccc12)NC(=O)[C@H](CCC(N)=O)NC(=O)[C@@H](Cc1ccccc1)NC(=O)CCCCCNC(=O)CN1CCN(CC(=O)O)CCN(CC(=O)O)CCN(CC(=O)O)CC1)C(C)C [indium-111 labelled]	Gastrin-releasing peptide receptor (Mus musculus, UniProt P21729)		CF-1 mice, carcass	intravenous, dose not given, 1 h, added: bombesin 100 µg (blocking)		tissue uptake	0.2 ± 0.02 %ID/g
